Measured values collected from several papers.
Each line is one published result; not all experiments were run side by side. Numbers after ± are the reported error.
polA D424A: polA fragment D424A (Escherichia coli)
B1: protein (Thermotoga neapolitana, UniProt B9K712); chain MKMLYDLAKKRKTVRRFKKEKPPLEDLIYSLKVANEAPSGMNAQPWRFLIVEDEKLKGQIRRVCERSEKTFYENVRGRLKEWLDEKRFTWRKPFLKEAPYLLLVFSEKSAPYSRESVWLAVGYLLLALEEKGLGSVPYTPPDFREVEKLVNTPSELRLEVILPVGYPDDPKPKYPRNEVIVRYNTF
UniProt Q94JM3, sequence (whole entry, unmodified, looked up): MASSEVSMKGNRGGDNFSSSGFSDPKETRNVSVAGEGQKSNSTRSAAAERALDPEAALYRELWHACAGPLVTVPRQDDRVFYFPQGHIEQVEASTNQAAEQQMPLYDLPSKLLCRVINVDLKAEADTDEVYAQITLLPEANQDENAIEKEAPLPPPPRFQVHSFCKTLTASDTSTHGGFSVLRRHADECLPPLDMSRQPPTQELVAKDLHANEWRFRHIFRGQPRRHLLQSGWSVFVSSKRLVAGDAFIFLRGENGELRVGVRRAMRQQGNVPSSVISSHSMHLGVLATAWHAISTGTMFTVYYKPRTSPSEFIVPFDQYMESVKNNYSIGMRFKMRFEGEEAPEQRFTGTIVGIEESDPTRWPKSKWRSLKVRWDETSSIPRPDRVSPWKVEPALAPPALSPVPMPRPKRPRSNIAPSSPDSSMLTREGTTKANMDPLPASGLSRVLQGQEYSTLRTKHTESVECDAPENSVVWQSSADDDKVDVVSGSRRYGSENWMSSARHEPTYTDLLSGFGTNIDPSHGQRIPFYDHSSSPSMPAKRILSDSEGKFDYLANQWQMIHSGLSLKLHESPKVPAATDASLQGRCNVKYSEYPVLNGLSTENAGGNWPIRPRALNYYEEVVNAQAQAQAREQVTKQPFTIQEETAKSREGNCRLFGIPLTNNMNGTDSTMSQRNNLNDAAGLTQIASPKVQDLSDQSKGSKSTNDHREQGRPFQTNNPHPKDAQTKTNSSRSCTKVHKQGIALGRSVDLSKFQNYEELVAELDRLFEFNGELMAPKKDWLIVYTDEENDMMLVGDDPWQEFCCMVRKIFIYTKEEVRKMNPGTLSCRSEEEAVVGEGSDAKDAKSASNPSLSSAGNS
UniProt Q8MQJ9, sequence (whole entry, looked up): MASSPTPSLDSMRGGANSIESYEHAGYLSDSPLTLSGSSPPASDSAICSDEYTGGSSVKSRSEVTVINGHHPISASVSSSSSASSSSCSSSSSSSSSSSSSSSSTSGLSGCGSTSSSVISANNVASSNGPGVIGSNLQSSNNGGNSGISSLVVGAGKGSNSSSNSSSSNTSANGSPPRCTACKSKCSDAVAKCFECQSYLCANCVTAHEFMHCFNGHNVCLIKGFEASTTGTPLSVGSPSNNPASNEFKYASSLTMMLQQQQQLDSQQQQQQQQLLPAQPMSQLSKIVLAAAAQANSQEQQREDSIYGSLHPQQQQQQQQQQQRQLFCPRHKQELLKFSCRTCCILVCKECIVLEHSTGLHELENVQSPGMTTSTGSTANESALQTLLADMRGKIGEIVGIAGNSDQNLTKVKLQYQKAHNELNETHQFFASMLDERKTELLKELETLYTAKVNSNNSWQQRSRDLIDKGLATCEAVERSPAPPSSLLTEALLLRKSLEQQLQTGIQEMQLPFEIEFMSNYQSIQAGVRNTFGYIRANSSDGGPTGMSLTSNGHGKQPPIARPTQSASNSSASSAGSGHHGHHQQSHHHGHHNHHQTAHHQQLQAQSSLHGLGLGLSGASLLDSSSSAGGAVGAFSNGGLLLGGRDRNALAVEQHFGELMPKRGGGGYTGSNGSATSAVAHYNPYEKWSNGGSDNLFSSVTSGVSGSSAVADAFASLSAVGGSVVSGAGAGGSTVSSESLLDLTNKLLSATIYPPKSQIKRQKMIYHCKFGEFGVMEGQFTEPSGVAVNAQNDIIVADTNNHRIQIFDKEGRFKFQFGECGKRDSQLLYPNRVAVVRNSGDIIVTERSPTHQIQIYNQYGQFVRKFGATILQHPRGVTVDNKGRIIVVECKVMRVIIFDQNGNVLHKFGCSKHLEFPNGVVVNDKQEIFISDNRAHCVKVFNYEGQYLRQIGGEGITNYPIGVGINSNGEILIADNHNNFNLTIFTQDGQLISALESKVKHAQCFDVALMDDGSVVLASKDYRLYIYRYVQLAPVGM
UniProt P21889, sequence (whole entry, looked up): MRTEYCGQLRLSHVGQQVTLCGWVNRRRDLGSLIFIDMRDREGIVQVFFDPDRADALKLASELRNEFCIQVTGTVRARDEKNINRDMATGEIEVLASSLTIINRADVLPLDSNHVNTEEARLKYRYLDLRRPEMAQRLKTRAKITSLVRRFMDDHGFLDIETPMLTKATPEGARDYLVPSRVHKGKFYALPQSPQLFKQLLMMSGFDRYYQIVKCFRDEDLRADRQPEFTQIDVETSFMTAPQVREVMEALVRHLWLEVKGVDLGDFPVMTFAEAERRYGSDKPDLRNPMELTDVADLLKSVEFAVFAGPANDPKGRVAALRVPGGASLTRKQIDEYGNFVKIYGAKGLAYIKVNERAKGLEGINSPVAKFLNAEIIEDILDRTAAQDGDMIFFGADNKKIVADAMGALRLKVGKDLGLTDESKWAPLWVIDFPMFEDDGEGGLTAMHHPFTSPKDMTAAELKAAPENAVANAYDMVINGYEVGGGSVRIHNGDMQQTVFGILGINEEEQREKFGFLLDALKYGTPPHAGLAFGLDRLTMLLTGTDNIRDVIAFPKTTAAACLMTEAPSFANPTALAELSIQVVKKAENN

GAGATTAGAACACATGGATTGAATTT (dsDNA) — binding (Transcription factor bHLH93 (Gossypium hirsutum, UniProt A0ABM3A805); EMSA; double-stranded DNA, one strand shown): binds
GGAGCGGUAGUUCAGUCGGUUAGAAUACCUGCCUGUCACGCAGGGGGUCGCGGGUUCGAGUCCCGUCCGUUCCGCCA (tRNA (Escherichia coli); cloverleaf, unmodified) — Kd (aspS full length assumed (Escherichia coli, UniProt P21889); ITC; folded RNA): 3100 ± 100 nM
GACAUGGUCCGGUAGUUCAGUUGGUUAGAAUGCCUGCCUGUCACGCAGGAGGUCGCGGGUUCGAGUCCCGUCCGGACCG (tRNA (Bacillus subtilis); 5'-GMPS, tRNA fold) — relative affinity (PRORP1 77-572 R184K (Arabidopsis thaliana, UniProt Q66GI4); fluorescence anisotropy; folded RNA; NaCl 1 M, extrapolated; relative to: wild-type target): 10 fold
CCTCTTCCCTCACCTCTTCTTGACCTCATTCGTACCCATTGACCTTCGCAACCACCTGCGAAGGTCAATGGGTACGAATGAGGT (hairpin DNA; hairpin, 5' overhang, 3' ddT) — Kd (polA D424A; SPR; together with: dATP 100 µM): 3.5 ± 1.1 nM
AGTCTTTTTGGTCTCTGGTCGGTCGACAATCCGTGTG (dsDNA; 5-C6-amino-dT labels) — K1/2 (ARF2 1-859 K737S (Arabidopsis thaliana, UniProt Q94JM3); smFRET titration; double-stranded DNA, one strand shown): 90.5 nM
B1 (protein) — kcat (N[C@@H](Cc1ccc(O)c(Cl)c1)C(=O)O; steady-state kinetics; pH 7.4, 60 °C): 0.0483 ± 0.01 s⁻¹
AAAAAGAA (ssRNA) — Kd (lin28b 125-175 (Xenopus tropicalis, UniProt B4F6I0); ITC; RNA): 11900 ± 2200 nM
UAUUAAGAAGUCGAAAAUUGUACAUAA (ssRNA) — binding (brat 756-1037 (Drosophila melanogaster, UniProt Q8MQJ9); EMSA; RNA): no binding
CCTCTTCCCTCACCTCTTCTTGACCTCATTCGTACCCATTGACCTTCGCAACCACCTGCGAAGGTCAATGGGTACGAATGAGGT (hairpin DNA; hairpin, 5' overhang, dG-C8-FABP 22, 3' ddT) — Kd (polA D424A; SPR; together with: dATP 100 µM): 0.44 ± 0.01 nM

Repeated from above:
GGAGCGGUAGUUCAGUCGGUUAGAAUACCUGCCUGUCACGCAGGGGGUCGCGGGUUCGAGUCCCGUCCGUUCCGCCA (tRNA (Escherichia coli); cloverleaf, unmodified) — Kd (aspS full length assumed (Escherichia coli, UniProt P21889); ITC; folded RNA): 3100 ± 100 nM
